Measured values collected from several papers.
Numbered parts are unrelated; each lists some results of a single study. Values joined by “and” are separate records of one study, mostly repeats; a detail may differ.
UniProt O75417, sequence (whole entry, unmodified, looked up): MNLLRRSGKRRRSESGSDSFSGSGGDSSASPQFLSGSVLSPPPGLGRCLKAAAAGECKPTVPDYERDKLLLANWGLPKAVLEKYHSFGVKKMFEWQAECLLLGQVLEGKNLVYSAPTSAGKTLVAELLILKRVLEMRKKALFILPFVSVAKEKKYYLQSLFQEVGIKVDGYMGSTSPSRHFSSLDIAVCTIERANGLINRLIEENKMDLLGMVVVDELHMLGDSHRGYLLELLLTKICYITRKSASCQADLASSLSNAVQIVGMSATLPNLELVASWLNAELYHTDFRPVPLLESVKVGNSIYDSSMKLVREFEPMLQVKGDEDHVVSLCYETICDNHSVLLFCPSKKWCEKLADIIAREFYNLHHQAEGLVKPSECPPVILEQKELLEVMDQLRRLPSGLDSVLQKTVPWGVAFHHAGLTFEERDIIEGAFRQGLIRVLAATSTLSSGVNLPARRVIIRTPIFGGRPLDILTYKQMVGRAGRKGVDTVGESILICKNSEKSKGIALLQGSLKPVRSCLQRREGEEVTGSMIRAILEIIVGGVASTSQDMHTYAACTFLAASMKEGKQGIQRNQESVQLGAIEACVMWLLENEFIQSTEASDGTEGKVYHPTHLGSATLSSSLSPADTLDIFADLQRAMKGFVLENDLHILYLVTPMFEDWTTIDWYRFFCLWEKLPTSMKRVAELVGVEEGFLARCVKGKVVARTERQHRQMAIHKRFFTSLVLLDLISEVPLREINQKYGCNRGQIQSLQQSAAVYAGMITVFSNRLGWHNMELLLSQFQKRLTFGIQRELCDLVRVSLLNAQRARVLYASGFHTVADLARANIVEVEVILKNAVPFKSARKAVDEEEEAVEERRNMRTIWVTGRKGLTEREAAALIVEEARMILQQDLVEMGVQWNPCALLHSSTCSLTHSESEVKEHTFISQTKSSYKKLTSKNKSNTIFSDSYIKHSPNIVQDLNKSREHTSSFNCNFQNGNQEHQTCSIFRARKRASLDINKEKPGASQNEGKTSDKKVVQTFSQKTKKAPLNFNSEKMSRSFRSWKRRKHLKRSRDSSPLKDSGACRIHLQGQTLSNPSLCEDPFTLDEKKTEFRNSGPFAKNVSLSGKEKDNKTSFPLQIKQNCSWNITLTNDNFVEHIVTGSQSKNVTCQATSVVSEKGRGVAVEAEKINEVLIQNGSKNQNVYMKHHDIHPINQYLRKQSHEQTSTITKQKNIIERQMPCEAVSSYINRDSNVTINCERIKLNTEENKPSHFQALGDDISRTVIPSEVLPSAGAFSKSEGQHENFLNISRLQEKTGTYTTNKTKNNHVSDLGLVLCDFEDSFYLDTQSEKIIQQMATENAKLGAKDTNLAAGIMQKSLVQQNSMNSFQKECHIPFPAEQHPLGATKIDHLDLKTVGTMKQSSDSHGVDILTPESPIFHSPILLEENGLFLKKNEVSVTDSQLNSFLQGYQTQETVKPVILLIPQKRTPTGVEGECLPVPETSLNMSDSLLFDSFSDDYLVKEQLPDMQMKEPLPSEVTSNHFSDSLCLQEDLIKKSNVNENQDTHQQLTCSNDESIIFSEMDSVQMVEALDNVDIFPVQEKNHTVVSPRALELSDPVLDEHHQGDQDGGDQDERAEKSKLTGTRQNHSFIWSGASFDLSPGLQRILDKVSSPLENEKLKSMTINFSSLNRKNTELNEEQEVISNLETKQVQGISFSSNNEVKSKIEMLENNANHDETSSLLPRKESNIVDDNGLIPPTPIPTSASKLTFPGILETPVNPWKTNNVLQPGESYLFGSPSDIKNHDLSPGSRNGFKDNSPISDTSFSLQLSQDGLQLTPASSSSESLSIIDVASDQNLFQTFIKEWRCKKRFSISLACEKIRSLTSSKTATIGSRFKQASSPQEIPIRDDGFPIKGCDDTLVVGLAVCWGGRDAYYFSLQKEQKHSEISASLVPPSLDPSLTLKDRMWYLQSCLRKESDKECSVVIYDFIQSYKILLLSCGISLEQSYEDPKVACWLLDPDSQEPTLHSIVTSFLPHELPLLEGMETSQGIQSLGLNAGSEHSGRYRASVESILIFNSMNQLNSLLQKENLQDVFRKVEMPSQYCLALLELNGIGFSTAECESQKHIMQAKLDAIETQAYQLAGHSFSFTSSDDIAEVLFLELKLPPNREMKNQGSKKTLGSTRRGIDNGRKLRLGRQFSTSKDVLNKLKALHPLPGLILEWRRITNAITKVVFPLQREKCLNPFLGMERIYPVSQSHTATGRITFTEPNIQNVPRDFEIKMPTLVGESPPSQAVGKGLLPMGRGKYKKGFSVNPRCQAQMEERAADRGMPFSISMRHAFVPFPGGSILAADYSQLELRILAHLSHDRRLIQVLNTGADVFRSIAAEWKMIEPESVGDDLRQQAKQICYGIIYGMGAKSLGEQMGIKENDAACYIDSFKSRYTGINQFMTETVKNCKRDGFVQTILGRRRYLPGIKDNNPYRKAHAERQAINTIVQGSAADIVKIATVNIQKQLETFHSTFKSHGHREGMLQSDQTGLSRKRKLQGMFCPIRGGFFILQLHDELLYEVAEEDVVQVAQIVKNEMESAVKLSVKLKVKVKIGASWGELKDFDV

Set 1
Target: D(1B) dopamine receptor (DRD5, Homo sapiens, UniProt P21918)
Observed: binding
Method: radioligand binding
Concentration: 10 µM
Structure (SMILES)	inhibition [%]
CN(C)C(=O)Cn1cc(-c2nc([C@@](C)(c3ccc(-c4cnc(N)nc4)cc3)C3CC3)no2)cn1	9.24
C[C@@]1(Cc2ccc(C#N)cc2)C(=O)N(c2cc(Cl)cc(Cl)c2)c2ncc(C(=O)NC3(c4nc(C5CCC5)no4)CC3)n21	7.21
O=C(O)c1cc(-c2ccc(C3CCNCC3)cc2)c2ccc(-c3ccc(C(F)(F)F)cc3)cc2c1	73.7
C[C@@H]1CN(c2cc(-c3nn(C)c4ccc(OC5(C)CC5)cc34)ncn2)C[C@H](C)O1	3.61
COc1cccc(CNC(=O)c2nc3scc(COCc4ccc(C(=O)O)cc4)c3c(=O)[nH]2)c1	11.9
Cc1cc(-n2nc(Cc3cc(F)cc(C(F)(F)F)c3)nc2C)ccc1C(N)=O	14.3
CN1CCN(C(=O)C(C)(C)c2ccc(C(=O)Nc3cn4cc(-c5ccncc5)ccc4n3)cc2)CC1	-7.3
CNC(=O)c1ccc(Nc2ncc(C(F)(F)F)c(NCc3nccnc3N(C)S(C)(=O)=O)n2)cc1	-7.46
O=C1c2ccc(Nc3ccc(F)cc3F)cc2CCc2ccc(OC[C@H](O)CO)cc21	21
O=C(Nc1cccnn1)N1CCC(=Cc2cccc(Oc3ccc(C(F)(F)F)cn3)c2)CC1	29.3
O=C(NC[C@@H]1[C@H]2CN(C(=O)OCc3cc(C(F)(F)F)cc(C(F)(F)F)c3)C[C@@H]12)c1ccc2[nH]nnc2c1	21.6
COc1cc(-c2cn(C3CCc4ccccc4N(CC(F)(F)F)C3=O)nn2)ccc1-n1ccc(C)n1 (stereo not drawn)	20.1

Set 2
Target: HLA class I histocompatibility antigen, A alpha chain, allele A*25:01 (Homo sapiens, UniProt P04439)
Observed: peptide-MHC binding
Form: peptide
Concentration: concentration not given
Sequence	binding
AGGWVLWKV	inactive
SLVAIHLAC	inactive
WQQWDRQSL	inactive
DLEKYNLAF	inactive
LICYQIEYI	inactive
FPIPTEVVA	inactive
LARFPCNVI	inactive
VMGVIGFGF	inactive

Further values, each from its own experiment
SMILES	target or system	assay	setting	how to read	measurement	value
Cc1ncc2n1-c1ccc(Cl)cc1C(c1ccccc1F)=NC2	Sarcocystis neurona	parasite activity	10 µM, 96 h	–	activity class	inactive
CC(C)(C)c1cnc(CSc2cnc(NC(=O)C3CCN(CCCCCSc4cccc5c4CN(C4CCC(=O)NC4=O)C5=O)CC3)s2)o1 (stereo not drawn)	HEK293T	trypan blue exclusion	250 nM, 24 h	–	viability	87.2% and 92.8% and 97.4%
CNC[C@@H](O)c1ccc(O)cc1 (racemic)	DNA polymerase theta, ATPase domain (POLQ, Homo sapiens, UniProt O75417)	enzyme activity, inhibitor	77 µM	reference: untreated	remaining activity	100%
O=C1CN=C(c2ccccc2)c2cc([N+](=O)[O-])ccc2N1	Sarcocystis neurona	parasite activity	10 µM, 96 h	–	activity class	inactive

A few entries again (set 1):
Structure (SMILES)	inhibition [%]
O=C(O)c1cc(-c2ccc(C3CCNCC3)cc2)c2ccc(-c3ccc(C(F)(F)F)cc3)cc2c1	73.7
C[C@@H]1CN(c2cc(-c3nn(C)c4ccc(OC5(C)CC5)cc34)ncn2)C[C@H](C)O1	3.61
COc1cccc(CNC(=O)c2nc3scc(COCc4ccc(C(=O)O)cc4)c3c(=O)[nH]2)c1	11.9
